Measurements gathered from unrelated publications.
Protocols differ between the studies behind these lines. Values joined by “and” are separate records of one study, mostly repeats; a detail may differ. ± gives the spread as reported.
TOP2A: DNA topoisomerase 2-alpha (TOP2A, Homo sapiens, UniProt P11388)
Sequence of UniProt P11388 (whole entry, looked up): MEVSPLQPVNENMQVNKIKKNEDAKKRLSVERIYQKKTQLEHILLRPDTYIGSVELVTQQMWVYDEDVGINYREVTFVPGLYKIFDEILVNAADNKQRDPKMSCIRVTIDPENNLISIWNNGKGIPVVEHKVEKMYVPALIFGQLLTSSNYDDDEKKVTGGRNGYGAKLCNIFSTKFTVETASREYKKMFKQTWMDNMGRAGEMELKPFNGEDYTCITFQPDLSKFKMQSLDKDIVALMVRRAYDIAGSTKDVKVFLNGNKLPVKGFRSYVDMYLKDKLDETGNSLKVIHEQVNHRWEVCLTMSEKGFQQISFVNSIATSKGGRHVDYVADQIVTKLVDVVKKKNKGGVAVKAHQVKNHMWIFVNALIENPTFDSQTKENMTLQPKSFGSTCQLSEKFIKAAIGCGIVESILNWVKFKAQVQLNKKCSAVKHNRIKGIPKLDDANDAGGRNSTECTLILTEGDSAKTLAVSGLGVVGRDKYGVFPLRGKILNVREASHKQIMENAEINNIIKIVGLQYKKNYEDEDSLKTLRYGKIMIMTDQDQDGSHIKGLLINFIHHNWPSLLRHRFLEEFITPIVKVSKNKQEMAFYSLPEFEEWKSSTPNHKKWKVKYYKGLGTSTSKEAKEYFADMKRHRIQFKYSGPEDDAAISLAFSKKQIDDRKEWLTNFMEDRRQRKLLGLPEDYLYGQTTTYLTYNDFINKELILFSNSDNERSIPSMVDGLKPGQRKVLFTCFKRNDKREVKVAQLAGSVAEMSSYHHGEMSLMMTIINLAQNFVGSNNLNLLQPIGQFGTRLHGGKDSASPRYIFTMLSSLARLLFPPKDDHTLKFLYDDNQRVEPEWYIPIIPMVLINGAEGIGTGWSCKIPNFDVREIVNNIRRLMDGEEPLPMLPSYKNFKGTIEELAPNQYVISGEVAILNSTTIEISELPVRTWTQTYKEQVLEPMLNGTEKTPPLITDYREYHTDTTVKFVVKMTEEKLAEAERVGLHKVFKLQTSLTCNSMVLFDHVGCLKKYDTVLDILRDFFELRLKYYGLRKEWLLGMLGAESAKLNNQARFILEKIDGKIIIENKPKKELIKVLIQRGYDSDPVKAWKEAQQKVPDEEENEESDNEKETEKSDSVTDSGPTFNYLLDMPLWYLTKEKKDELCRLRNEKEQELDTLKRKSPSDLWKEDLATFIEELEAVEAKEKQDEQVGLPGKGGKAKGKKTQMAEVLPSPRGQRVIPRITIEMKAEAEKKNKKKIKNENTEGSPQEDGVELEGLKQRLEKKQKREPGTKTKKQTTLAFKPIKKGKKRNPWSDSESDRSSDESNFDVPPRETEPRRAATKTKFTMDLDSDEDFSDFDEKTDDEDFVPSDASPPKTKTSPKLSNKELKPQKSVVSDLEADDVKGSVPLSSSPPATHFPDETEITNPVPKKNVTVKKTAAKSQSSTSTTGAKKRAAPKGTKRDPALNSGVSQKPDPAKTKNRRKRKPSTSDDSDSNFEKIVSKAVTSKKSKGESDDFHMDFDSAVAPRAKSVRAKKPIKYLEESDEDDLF
PKN1: Serine/threonine-protein kinase N1 (PKN1, Homo sapiens, UniProt Q16512)
Sequence of UniProt Q16512 (whole entry, looked up): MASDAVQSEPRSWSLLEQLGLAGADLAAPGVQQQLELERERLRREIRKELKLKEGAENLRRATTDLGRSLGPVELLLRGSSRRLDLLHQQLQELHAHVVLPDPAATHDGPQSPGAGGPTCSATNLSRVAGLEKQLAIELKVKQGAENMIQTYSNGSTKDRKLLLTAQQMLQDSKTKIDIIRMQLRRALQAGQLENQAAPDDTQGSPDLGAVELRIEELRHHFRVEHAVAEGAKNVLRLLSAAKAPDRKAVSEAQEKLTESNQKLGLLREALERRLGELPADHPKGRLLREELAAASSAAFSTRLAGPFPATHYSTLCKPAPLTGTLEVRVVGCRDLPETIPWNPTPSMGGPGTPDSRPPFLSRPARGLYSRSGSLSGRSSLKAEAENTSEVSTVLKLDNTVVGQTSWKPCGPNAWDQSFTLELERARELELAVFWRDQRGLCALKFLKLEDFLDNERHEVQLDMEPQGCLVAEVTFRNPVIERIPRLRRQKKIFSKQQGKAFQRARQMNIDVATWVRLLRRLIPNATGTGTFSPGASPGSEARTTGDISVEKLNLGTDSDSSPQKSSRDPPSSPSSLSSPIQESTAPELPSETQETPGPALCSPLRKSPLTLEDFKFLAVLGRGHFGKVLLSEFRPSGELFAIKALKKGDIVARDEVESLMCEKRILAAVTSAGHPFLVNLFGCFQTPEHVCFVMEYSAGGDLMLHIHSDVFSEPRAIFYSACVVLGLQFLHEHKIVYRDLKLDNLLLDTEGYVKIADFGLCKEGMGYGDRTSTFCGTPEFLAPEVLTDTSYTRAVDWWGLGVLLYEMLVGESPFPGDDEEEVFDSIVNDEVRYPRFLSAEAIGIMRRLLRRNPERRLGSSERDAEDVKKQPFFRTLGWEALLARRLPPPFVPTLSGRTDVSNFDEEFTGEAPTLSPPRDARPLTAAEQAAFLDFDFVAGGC
Cereblon/Ikaros: Cereblon/Ikaros (Homo sapiens, UniProt Q13422+Q96SW2)
Sequence of UniProt Q96SW2 (whole entry, looked up): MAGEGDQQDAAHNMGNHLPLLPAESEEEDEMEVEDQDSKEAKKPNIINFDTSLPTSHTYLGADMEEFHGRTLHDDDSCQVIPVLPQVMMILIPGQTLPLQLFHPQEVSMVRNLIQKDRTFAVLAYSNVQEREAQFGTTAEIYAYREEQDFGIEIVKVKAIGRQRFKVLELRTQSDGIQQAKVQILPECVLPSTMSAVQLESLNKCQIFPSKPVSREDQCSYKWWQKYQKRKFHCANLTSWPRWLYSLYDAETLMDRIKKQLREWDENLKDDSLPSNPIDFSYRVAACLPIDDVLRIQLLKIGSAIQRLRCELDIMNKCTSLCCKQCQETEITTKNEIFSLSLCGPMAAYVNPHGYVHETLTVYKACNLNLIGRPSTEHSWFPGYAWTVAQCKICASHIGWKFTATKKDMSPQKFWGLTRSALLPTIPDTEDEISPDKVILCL
BEST2: Bestrophin-2a (BEST2, Homo sapiens, UniProt Q8NFU1)
Sequence of UniProt Q8NFU1 (whole entry, looked up): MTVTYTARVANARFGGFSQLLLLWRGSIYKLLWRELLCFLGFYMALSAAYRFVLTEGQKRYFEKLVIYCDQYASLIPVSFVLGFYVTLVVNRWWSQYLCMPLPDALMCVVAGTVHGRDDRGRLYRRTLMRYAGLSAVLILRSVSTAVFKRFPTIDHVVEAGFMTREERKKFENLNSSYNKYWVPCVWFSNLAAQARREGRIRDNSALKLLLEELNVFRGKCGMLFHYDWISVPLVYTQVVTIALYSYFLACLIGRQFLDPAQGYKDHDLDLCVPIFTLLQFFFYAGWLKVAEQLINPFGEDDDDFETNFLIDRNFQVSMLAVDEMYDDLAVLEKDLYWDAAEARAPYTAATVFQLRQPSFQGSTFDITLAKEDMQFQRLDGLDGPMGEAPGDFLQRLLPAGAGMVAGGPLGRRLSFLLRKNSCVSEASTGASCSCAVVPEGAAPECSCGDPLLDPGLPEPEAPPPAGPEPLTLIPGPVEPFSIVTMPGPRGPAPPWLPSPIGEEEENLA
T1: G-quadruplex RNA (Homo sapiens); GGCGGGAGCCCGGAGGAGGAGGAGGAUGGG
Sequence of UniProt Q96S37 (whole entry, looked up): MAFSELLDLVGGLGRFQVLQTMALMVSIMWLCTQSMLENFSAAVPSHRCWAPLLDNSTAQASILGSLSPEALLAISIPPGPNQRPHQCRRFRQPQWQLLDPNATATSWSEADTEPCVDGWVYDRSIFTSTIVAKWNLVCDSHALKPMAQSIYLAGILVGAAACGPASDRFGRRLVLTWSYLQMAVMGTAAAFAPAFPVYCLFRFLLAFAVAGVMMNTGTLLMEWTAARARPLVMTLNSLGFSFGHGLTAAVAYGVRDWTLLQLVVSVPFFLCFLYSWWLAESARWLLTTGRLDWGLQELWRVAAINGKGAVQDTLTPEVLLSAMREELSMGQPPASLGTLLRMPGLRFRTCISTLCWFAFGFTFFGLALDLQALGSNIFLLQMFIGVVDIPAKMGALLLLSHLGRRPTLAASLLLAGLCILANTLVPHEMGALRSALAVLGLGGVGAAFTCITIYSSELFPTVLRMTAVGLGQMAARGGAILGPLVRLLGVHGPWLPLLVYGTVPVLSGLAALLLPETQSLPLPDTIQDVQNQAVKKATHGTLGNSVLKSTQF
Sequence of UniProt Q62351 (whole entry, looked up): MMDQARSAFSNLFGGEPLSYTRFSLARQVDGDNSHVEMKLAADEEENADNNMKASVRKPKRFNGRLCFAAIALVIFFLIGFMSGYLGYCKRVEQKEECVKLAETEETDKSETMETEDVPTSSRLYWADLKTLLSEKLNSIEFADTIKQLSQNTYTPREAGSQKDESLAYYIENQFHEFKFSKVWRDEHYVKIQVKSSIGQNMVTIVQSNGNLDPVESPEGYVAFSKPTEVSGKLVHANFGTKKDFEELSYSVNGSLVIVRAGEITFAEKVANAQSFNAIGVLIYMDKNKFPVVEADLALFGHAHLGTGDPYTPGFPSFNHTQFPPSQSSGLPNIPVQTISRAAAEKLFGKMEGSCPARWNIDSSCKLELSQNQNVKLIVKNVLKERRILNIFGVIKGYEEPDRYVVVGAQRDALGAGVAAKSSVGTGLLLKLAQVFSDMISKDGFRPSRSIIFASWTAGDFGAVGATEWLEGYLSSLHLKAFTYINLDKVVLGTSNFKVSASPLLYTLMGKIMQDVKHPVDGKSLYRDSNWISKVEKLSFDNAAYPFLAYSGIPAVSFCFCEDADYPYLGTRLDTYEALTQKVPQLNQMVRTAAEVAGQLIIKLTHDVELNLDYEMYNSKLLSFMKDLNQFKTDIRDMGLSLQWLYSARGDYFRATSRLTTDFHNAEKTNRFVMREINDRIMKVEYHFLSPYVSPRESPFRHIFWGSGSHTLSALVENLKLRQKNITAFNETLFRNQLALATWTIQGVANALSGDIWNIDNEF
Sequence of UniProt Q9NZQ7 (whole entry, looked up): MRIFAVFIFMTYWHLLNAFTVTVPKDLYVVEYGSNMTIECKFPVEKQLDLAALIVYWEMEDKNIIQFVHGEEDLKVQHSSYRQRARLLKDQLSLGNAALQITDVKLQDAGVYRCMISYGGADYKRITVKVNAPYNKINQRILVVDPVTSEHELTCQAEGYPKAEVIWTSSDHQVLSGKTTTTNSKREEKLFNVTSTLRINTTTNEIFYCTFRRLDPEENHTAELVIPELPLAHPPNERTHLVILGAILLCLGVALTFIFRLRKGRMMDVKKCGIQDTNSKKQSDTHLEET

Compound	tested on	test	test system	setting	how to read	quantity	result
CC[C@@H](C)[C@@H](NC(=O)[C@@H](Cc1ccc(O)cc1)NC(=O)[C@H]1CCCN1C(=O)[C@@H](CCCNC(=N)N)NC(=O)[C@H](N)Cc1c[nH]cn1)C(=O)N[C@H](C)C(=O)N[C@H](Cc1c[nH]cn1)C(=O)N[C@H](CCCNC(=N)N)C(=O)N[C@@H](C(=O)N[C@H](Cc1ccc(O)cc1)C(=O)N[C@H](CO)C(=O)N[C@H](Cc1ccccc1)C(N)=O)C(C)C	Transferrin receptor protein 1 (Tfrc, Mus musculus, UniProt Q62351)	flow cytometry	MC-38	24 h, unit not given	relative to: 0 h	surface expression	0.893 and 0.885
O=c1nc(SCc2cc(F)cc(C(F)(F)F)c2)nc(SCc2ccc3ccccc3n2)[nH]1	TOP2A	decatenation	–	31.25 µM, replicate 2	–	decatenated DNA	0.32%
CN1CCN(c2cc(-c3ccncc3)c(-c3ccc4ccccc4c3)nn2)CC1	C-C chemokine receptor type 4 (CCR4, Homo sapiens, UniProt P51679)	antagonist, FLIPR	–	10 µM	–	inhibition	0.6%
[Ca+2]	Cone cGMP-gated channel (Morone saxatilis, UniProt Q3I0N1+Q3I0N2)	channel current, modified Michaelis-Menten fit	striped bass (Morone saxatilis), cone outer segment	together with: cGMP	–	Ca2+ K1/2 limit	857 nM and ~860 nM
O=c1nc(SCc2ccc(C(F)(F)F)cc2)nc(SCc2ccc3sccc3c2)[nH]1	TOP2A	decatenation	–	125 µM, replicate 2	–	decatenated DNA	0%
COc1nc(-c2cccc(-c3ccccc3)c2C)ccc1CNCCNC(=O)CCCCCCCCCCC(=O)N1CCN(CCNC(=O)c2cc3c(=O)n4cccc(C)c4nc3n(CCc3cccs3)c2=N)CC1	Programmed cell death 1 ligand 1 (CD274, Homo sapiens, UniProt Q9NZQ7)	degrader, western blot	HL-60	1 µM	–	degradation	> 50%
Cc1cc(Nc2nc(N[C@@H](C)c3ccc(F)cc3)c(C#N)cc2F)[nH]n1	PKN1	inhibitor	–	–	–	Hill slope	-0.718
Nc1nc(N)c2nc(CNc3ccc(C(=O)c4ccccc4)cc3)cnc2n1	Pteridine reductase 1 (Leishmania major, UniProt Q01782)	–	–	hDHFR weight 10	relative to: LmPTR1, LmDHFR over hDHFR, 1.0 selective, 0.0 non-selective	partition index	0.95
O=C1CCC(N2C(=O)C=C(Nc3cccc(C4CCN(CCc5ccc(C(F)(F)F)c(Cl)c5)CC4)c3)C2=O)C(=O)N1 (stereo not drawn)	Cereblon/Ikaros	protein degradation, degrader, HiBiT luminescence	Jurkat	–	–	Dmax	61%
Nc1ncnc2c1nc(Br)n2[C@@H]1O[C@@H]2COP(=O)(O)O[C@H]2[C@H]1O	anti-cGMP antibody	antibody binding, competitive cGMP EIA	–	concentration not given, acetylated samples	relative to: EC50 cGMP over EC50 cpd, higher = stronger binding	relative binding affinity	0.0024
Cc1ccc(N(C)C(=O)/C=C/c2ccco2)cc1	Neuronal acetylcholine receptor subunit alpha-7 (Chrna7, Rattus norvegicus, UniProt Q05941)	inhibitor	–	together with: acetylcholine 30 µM	–	Hill coefficient	1.3 ± 0.2
C[C@@H](O)[C@H](NC(=O)[C@H](Cc1ccc(O)cc1)NC(=O)[C@H](Cc1ccc(O)cc1)NC(=O)[C@H](CO)NC(=O)[C@H](CCCNC(=N)N)NC(=O)[C@H](Cc1c[nH]cn1)NC(=O)[C@@H](N)Cc1c[nH]c2ccccc12)C(=O)N[C@@H](Cc1c[nH]c2ccccc12)C(=O)N[C@@H](CC(N)=O)C(=O)NCCCC[C@H](NC(=O)[C@H](CCCCNC(=O)[C@H](CC(N)=O)NC(=O)[C@H](Cc1c[nH]c2ccccc12)NC(=O)[C@@H](NC(=O)[C@H](Cc1ccc(O)cc1)NC(=O)[C@H](Cc1ccc(O)cc1)NC(=O)[C@H](CO)NC(=O)[C@H](CCCNC(=N)N)NC(=O)[C@H](Cc1c[nH]cn1)NC(=O)[C@@H](N)Cc1c[nH]c2ccccc12)[C@@H](C)O)NC(=O)[C@H](CC(N)=O)NC(=O)[C@H](Cc1c[nH]c2ccccc12)NC(=O)[C@@H](NC(=O)[C@H](Cc1ccc(O)cc1)NC(=O)[C@H](Cc1ccc(O)cc1)NC(=O)[C@H](CO)NC(=O)[C@H](CCCNC(=N)N)NC(=O)[C@H](Cc1c[nH]cn1)NC(=O)[C@@H](N)Cc1c[nH]c2ccccc12)[C@@H](C)O)C(=O)N[C@@H](CCCCN)C(=O)N[C@@H](CCCCN)C(N)=O	Programmed cell death 1 ligand 1, with PD-1 (CD274, Homo sapiens, UniProt Q9NZQ7)	PD-1 binding, inhibitor, competitive ELISA	–	2.5 µM	relative to: PBS over 2% BSA	fold reduction of blocking	1.4 fold
C=CC(=O)N1CCC(COCC(=O)N2CCN(c3nc(-c4cnc(N)nc4C(F)F)nc(N4CCOC[C@@H]4C)n3)CC2)CC1	Ribosomal protein S6 kinase beta-1 (RPS6KB1, Homo sapiens, UniProt P23443)	KINOMEscan	–	1 µM	–	remaining binding	100%
O=c1nc(SCc2cc(F)cc(C(F)(F)F)c2)nc(SCc2ccc3nc(Cl)ccc3c2)[nH]1	TOP2A	DNA cleavage	–	125 µM	–	mean linear DNA	3.24%
O=C(O)C1=CCNCC1	BEST2	whole-cell patch clamp	HEK293 transiently expressing channel	concentration not given, membrane potential 0 mV	–	current density	0.06 pA/pF and 0.03 pA/pF and 0.08 pA/pF and 0.01 pA/pF
O=c1cc(-c2ccc(OS(=O)(=O)[O-])cc2)oc2cc(OS(=O)(=O)[O-])cc(OCc3cccc(COc4cc(OS(=O)(=O)[O-])cc5oc(-c6ccc(OS(=O)(=O)[O-])cc6)cc(=O)c45)n3)c12.[Na+].[Na+].[Na+].[Na+]	Neutrophil elastase (ELANE, Homo sapiens, UniProt P08246)	elastin cleavage, inhibitor, elastin-Congo red	–	concentration not given	–	duration of full inhibition	> 48 h
CC[C@@H]1[C@H](F)C(=O)N[C@@H]1COc1nccc2cc(C(N)=O)c(OC)cc12	PKN1	ATP-site probe binding, ActivX profiling	THP-1 cell lysate	0.04 mM, Lys1 site	–	inhibition	3.4%
COc1cc(/C=C2\SC(=O)NC2=O)cc(F)c1OCCNc1nc2c(cnn2C2CCCC2)c(=O)[nH]1	cGMP-dependent 3',5'-cyclic phosphodiesterase (PDE2A, Homo sapiens, UniProt O00408)	–	–	–	relative to: PDE2A over PDE9	selectivity ratio	51 fold
CC(C)c1ccc(CSc2nc(SCc3ccc4sccc4c3)[nH]c(=O)n2)cc1	TOP2A	decatenation	–	15.6 µM	–	mean decatenated DNA	2.66%
Nc1ccc(C(=O)O)cc1	BEST2	whole-cell patch clamp	HEK293 transiently expressing channel	concentration not given, membrane potential -80 mV	–	current density	-187 pA/pF and -225 pA/pF and -134 pA/pF and -60.7 pA/pF and -255 pA/pF and -295 pA/pF
Cn1cc(-c2ccc(-c3cncc(Cl)c3N3CCC4(CCNC4=O)CC3)cc2)cn1	COLO 205	gene expression, microarray, item: SQLE mRNA	–	concentration not given, 6 h	relative to: untreated cells	log2 fold change	1.11

Compound	tested on	test	test system	setting	how to read	quantity	result
CCc1oc2ccccc2c1C(=O)c1cc(Br)c(O)c(Br)c1	Solute carrier family 22 member 12 (SLC22A12, Homo sapiens, UniProt Q96S37)	inhibitor	HEK-293T	0.001 µM, 10 min, 37 °C, together with: [14C]urate 10 µM	–	normalized urate uptake	0.851 and 0.814 and 0.926
CC(C)[C@H](NC(=O)c1cc(-c2cnn3cc(-c4ccc(OCCN5CCCCC5)cc4)cnc23)cs1)C(F)(F)F	PLK3 (human)	radiometric kinase	–	15 nM	relative to: PLK3 over ULK1	relative inhibition	0.0341
COc1cccc2c(-c3ccc(CN4CCOCC4)cc3)cc(C(=O)Nc3ccc(C(=O)O)cc3)nc12	Retinoic acid receptor alpha (RARA, Homo sapiens, UniProt P10276)	transactivation, antagonist, reporter gene	–	up to 3300 nM, together with: 9-cis-retinoic acid at EC80, 180 nM	–	antagonist activity	inactive
CCOc1cccc(C2CC(=O)Nc3c2c(C)nn3-c2ccc3nncn3n2)c1 (stereo not drawn)	DNA damage-binding protein 1 (DDB1, Homo sapiens, UniProt Q16531)	binding, surface plasmon resonance	–	30 µM	–	SPR response	10.8 RU
Nc1nc2c(ncn2[C@@H]2O[C@H](COP(=O)(O)O)[C@@H](O)[C@H]2O)c(=O)[nH]1	GUK1 (Homo sapiens, UniProt Q16774, S13A)	binding, ITC	–	–	–	ΔG	-6.05 kcal/mol
c1ccc(CCCCCOCCc2ccc3c(c2)CCO3)cc1	ATP2A2 (Sus scrofa, UniProt P11607)	ATPase Vmax increase, activator	pig microsomes	0.1 to 50 µM	relative to: vehicle	Emax	~50%
C[C@@H]1C[C@H](Nc2ccccc2)c2cc(F)ccc2N1C(=O)c1ccnc(F)c1	Ecdysone receptor (Aedes albopictus, UniProt Q9U3Y4)	ligand binding, inhibitor	intact cells	together with: [3H]ponasterone A	direction not given	pIC50 Z-score	1.06
N.N.[Cl-].[Cl-].[Pt+2]	T1, G-quadruplex RNA (Homo sapiens)	SPR	–	25 °C, LiCl 100 mM, disrupted rG4, covalent	–	Kd	46 µM
CC[S+]([O-])c1nc(-c2ccccc2)cc(C(F)(F)F)n1 (stereo not drawn)	Importin subunit beta-1 (KPNB1, Homo sapiens, UniProt Q14974, C585A)	thermal shift	–	30 µM, 2 h	–	Tm2	50.4 °C
O=C(O)c1ccc([N+](=O)[O-])cc1	BEST2	whole-cell patch clamp	HEK293 transiently expressing channel	concentration not given, membrane potential 20 mV	–	current density	18.3 pA/pF and 75.5 pA/pF and 61 pA/pF and 49.4 pA/pF and 63 pA/pF
O=C(O)c1ccc(Nc2ncc3c(n2)-c2ccc(Cl)cc2C(c2c(F)cccc2F)=NC3)cc1	human TSSK2(h)	kinase activity	–	1 µM	–	remaining activity	101%
O=C1C(SCCO)=C(SCCO)C(=O)c2ccccc21	Protein-glutamine gamma-glutamyltransferase (TGM2, Homo sapiens, UniProt P21980)	enzyme activity, inhibitor	–	concentration not given, together with: DTT	relative to: without DTT over with DTT	potency reduction	~50 fold
O=c1nc(SCc2cc(F)cc(C(F)(F)F)c2)nc(SCc2nc3ccccc3[nH]2)[nH]1	TOP2A	decatenation	–	125 µM, replicate 1	–	decatenated DNA	0%
CCS(=O)(=O)N1CC(CC#N)(n2cc(-c3ncnc4[nH]ccc34)cn2)C1	Alpha-1-acid glycoprotein 1 (ORM1, Homo sapiens, UniProt P02763)	FRET	–	1.2 µM	–	energy transfer efficiency	27.2%
CCN1CCC[C@H]1CNC(=O)c1c(O)c(Cl)cc(Cl)c1OC	Probable G-protein coupled receptor 142 (Homo sapiens, UniProt Q7Z601)	β-arrestin recruitment, TANGO luminescence, item: GPR142	–	concentration not given	relative to: basal luminescence	log2 fold change	0.4
CCOC(=O)C1=C(CN2CCc3ccccc32)NC(=O)NC1c1ccccc1OC(F)F (stereo not drawn)	AASS, SDH domain (Homo sapiens, UniProt Q9UDR5)	binding, surface plasmon resonance	–	5 µM	–	SPR response	10.4 RU
COc1ccc(OC)c(-c2cc(C(C)=O)n3ccccc23)c1	Bromodomain-containing protein 9 (BRD9, Homo sapiens, UniProt Q9H8M2)	thermal stability, thermal shift	–	200 µM, together with: protein 10 µM	–	delta Tm	7.3 °C
O=S(=O)(O)C1CCNCC1	Sodium- and chloride-dependent taurine transporter (SLC6A6, Homo sapiens, UniProt P31641, G62A)	binding, microscale thermophoresis	–	31.3 µM, room temperature, together with: 50 nM labelled protein	higher = more binding	normalised MST signal	0.00823
O=C1CCC(N2C(=O)C=C(Nc3cccc(S(=O)(=O)NCCc4ccc(C(F)(F)F)c(Cl)c4)c3)C2=O)C(=O)N1 (stereo not drawn)	Cereblon/Ikaros	protein degradation, degrader, HiBiT luminescence	Jurkat	–	–	Dmax	52%
Cc1nc(CSc2nc(SCc3ccc(C(F)(F)F)cc3)nc(=O)[nH]2)cs1	TOP2A	decatenation	–	125 µM, replicate 1	–	decatenated DNA	25.6%
Oc1ccc(Cl)cc1Nc1nc(NCC2CCCO2)c2ccccc2n1 (stereo not drawn)	Lysosomal acid glucosylceramidase (GBA1, Homo sapiens, UniProt P04062, R534H)	–	–	–	relative to: bodipy-glucosylceramide over glucosylceramide	IC50 ratio	~13 fold

Repeated from above:
Compound	tested on	test	test system	setting	how to read	quantity	result
O=C1CCC(N2C(=O)C=C(Nc3cccc(C4CCN(CCc5ccc(C(F)(F)F)c(Cl)c5)CC4)c3)C2=O)C(=O)N1 (stereo not drawn)	Cereblon/Ikaros	protein degradation, degrader, HiBiT luminescence	Jurkat	–	–	Dmax	61%
Nc1ncnc2c1nc(Br)n2[C@@H]1O[C@@H]2COP(=O)(O)O[C@H]2[C@H]1O	anti-cGMP antibody	antibody binding, competitive cGMP EIA	–	concentration not given, acetylated samples	relative to: EC50 cGMP over EC50 cpd, higher = stronger binding	relative binding affinity	0.0024
Cc1ccc(N(C)C(=O)/C=C/c2ccco2)cc1	Neuronal acetylcholine receptor subunit alpha-7 (Chrna7, Rattus norvegicus, UniProt Q05941)	inhibitor	–	together with: acetylcholine 30 µM	–	Hill coefficient	1.3 ± 0.2
